Measurements of several laboratories.
± gives the spread as reported.
USP20 ZnF-UBD domain: Ubiquitin carboxyl-terminal hydrolase 20, ZnF-UBD domain (USP20, Homo sapiens, UniProt Q9Y2K6)
UniProt Q9Y2K6, sequence (whole entry, looked up): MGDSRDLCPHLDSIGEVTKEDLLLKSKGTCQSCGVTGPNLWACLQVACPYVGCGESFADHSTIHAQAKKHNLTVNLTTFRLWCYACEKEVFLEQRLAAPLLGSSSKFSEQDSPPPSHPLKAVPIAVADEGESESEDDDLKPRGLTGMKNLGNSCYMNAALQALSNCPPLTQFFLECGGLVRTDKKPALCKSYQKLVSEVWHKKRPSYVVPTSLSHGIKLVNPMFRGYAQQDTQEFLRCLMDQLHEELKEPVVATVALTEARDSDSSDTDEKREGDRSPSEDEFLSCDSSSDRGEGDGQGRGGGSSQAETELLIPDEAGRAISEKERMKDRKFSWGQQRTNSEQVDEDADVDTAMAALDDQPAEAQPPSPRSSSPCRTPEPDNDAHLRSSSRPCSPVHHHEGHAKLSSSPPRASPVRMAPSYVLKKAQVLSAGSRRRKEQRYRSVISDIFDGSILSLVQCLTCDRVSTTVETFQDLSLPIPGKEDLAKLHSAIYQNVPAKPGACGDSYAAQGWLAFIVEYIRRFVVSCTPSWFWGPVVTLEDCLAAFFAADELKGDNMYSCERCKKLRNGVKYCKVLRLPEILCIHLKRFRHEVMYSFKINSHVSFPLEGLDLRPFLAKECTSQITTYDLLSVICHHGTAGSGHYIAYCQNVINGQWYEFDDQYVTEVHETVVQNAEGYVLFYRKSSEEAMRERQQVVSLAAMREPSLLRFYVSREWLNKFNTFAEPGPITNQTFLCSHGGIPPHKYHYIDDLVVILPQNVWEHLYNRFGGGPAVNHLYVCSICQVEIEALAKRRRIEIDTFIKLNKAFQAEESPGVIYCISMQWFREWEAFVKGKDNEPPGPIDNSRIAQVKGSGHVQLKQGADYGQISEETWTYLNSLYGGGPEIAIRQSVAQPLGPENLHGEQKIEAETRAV
STK24: Serine/threonine-protein kinase 24 (STK24, Homo sapiens, UniProt Q9Y6E0)
UniProt Q9Y6E0, sequence (whole entry, looked up): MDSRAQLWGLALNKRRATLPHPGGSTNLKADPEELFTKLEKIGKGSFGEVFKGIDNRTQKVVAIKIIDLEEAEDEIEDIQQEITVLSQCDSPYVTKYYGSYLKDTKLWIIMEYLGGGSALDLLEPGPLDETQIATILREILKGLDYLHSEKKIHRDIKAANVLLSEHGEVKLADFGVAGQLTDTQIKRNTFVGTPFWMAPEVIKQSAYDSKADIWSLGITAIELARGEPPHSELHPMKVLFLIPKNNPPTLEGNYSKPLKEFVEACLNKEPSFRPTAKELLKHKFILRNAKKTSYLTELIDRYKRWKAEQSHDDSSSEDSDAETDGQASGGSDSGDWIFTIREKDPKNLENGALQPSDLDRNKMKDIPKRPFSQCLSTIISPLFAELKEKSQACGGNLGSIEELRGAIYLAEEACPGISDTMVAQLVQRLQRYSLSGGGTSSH
UniProt Q9Y345, sequence (whole entry, looked up): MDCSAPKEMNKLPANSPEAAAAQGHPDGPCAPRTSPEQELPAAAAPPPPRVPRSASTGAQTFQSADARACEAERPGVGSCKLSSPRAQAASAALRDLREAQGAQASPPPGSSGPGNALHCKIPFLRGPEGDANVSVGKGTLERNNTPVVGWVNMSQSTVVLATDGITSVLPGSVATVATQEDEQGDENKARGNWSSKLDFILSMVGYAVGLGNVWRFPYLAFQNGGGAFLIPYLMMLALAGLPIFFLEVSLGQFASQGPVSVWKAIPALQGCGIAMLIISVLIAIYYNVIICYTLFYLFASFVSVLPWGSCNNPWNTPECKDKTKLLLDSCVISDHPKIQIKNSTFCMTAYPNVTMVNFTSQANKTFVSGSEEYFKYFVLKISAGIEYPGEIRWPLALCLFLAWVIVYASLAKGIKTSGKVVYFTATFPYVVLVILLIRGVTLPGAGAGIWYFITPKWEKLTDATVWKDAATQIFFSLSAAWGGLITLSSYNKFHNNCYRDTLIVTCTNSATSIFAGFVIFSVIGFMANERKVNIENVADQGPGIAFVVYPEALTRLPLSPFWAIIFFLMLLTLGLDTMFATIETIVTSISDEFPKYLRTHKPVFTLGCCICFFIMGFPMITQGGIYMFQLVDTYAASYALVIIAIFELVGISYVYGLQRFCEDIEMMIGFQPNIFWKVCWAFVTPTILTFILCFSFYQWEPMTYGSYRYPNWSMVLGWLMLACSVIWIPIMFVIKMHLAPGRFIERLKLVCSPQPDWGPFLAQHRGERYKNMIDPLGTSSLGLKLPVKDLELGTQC
UniProt P07333, sequence (whole entry, looked up): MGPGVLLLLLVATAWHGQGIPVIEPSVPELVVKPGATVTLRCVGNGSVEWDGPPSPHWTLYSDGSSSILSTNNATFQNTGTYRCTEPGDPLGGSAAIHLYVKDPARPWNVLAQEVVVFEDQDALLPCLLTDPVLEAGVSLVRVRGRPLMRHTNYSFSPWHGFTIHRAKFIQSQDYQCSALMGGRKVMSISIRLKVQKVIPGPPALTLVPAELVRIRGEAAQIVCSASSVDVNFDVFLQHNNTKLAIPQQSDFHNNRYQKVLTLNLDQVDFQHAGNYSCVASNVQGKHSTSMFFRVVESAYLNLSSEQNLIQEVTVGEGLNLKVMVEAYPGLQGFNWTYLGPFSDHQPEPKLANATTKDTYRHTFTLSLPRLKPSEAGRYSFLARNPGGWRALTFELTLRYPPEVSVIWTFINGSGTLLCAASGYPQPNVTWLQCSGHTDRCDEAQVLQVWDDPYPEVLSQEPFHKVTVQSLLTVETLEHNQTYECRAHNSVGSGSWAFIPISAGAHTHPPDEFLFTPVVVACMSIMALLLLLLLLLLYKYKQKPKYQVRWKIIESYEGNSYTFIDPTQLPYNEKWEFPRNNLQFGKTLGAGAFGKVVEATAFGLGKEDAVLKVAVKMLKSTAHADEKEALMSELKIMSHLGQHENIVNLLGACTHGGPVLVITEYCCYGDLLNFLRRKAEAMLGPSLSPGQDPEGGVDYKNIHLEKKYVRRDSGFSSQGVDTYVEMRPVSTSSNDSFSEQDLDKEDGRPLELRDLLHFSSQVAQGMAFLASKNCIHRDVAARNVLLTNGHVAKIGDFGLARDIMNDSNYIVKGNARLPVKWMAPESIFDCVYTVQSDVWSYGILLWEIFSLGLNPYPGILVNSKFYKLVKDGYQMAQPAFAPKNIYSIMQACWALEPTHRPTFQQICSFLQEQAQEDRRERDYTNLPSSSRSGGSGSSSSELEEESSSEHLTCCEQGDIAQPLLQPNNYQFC
UniProt Q8NG66, sequence (whole entry, looked up): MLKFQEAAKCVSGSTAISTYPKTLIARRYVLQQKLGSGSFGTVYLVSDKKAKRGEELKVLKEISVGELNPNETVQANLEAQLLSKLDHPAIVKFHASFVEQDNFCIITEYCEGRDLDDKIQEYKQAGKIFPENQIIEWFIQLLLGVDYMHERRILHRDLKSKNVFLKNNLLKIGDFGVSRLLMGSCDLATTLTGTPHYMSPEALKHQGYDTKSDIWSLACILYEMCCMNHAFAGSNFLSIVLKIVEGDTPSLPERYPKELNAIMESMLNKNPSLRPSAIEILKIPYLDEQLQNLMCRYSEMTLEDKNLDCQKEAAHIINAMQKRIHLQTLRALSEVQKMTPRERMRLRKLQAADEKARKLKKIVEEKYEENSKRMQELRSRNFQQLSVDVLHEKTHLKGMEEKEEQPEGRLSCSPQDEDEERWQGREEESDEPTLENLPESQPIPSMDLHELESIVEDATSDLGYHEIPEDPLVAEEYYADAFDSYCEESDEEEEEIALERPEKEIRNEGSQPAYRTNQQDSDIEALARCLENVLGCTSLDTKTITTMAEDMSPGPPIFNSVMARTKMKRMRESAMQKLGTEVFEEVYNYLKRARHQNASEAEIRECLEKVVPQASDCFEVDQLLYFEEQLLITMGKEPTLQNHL

The remaining activity of `Nc1ncc2c(n1)-c1c([nH]c3ccc(-c4ccc(F)cc4)cc13)CCC2` is reported as 97% (Serine/threonine-protein kinase PAK 6 (PAK6, Homo sapiens, UniProt Q9NQU5); kinase activity, inhibitor, radiometric; 1 µM, together with: ATP at Km).
`O=C(O)CCc1cnccn1` has a Kd of over 1000 µM (USP20 ZnF-UBD domain).
The remaining activity of `COc1ccc(F)cc1C(=O)NCc1ccc(-c2nn([C@@H](C)C(F)(F)F)c(N)c2C(N)=O)cc1` is reported as 92.4 ± 0.3% (STK24; kinase activity, inhibitor, HotSpot radiometric; 100 nM, together with: ATP 10 µM).
`NC/C(=C\F)COc1cccc(Cn2c(=S)[nH]c(=O)c3[nH]cnc32)c1` has a remaining activity of 12.4% (Peroxidasin homolog (PXDN, Homo sapiens, UniProt Q92626); Amplex UltraRed; 40 µM, mean of replicates; baseline: control).
For `C1=C/COCc2cc(ccc2OCCN2CCCC2)Nc2nccc(n2)-c2cccc(c2)COC/1`, the remaining activity was 71% (Epidermal growth factor receptor (EGFR, Homo sapiens, UniProt P00533, del746-750); concentration not given; baseline: untreated control).
`O=C(NC1CCC1)c1ccc2nc(-c3cccc(NS(=O)(=O)NCCN4CCCCC4)c3)cn2c1` gave a remaining activity of 98% (Dual specificity protein kinase TTK (TTK, Homo sapiens, UniProt P33981); enzyme activity; 10 µM).
The remaining activity of `Cc1cc(Nc2cc(N3CCN(C)CC3)nc(Sc3ccc(NC(=O)C4CC4)cc3)n2)[nH]n1` is reported as 98% (Protein kinase C epsilon type (PRKCE, Homo sapiens, UniProt Q02156); kinase activity, KinaseProfiler; 0.03 µM, species human; baseline: control).
`O=C(O)c1ccc(Nc2ncc3c(n2)-c2ccc(Cl)cc2C(c2c(F)cccc2F)=NC3)cc1` gave a remaining activity of 63% (Arg(m); kinase activity; 1 µM).
With `C=CC(=O)N1CCC[C@@H](n2nc(-c3ccc(Oc4ccccc4)cc3)c3c(N)ncnc32)C1` the remaining activity was 90.5% (Tyrosine-protein kinase SYK (SYK, Homo sapiens, UniProt P43405); 0.1 µM).
For `CNc1ncc2c(/C=C/C(=O)N3CCC(OC)CC3)nn(Cc3cccc(C(F)(F)F)c3)c2n1`, the remaining activity was 88% (Macrophage colony-stimulating factor 1 receptor (CSF1R, Homo sapiens, UniProt P07333); kinase activity, inhibitor; 1 µM; baseline: untreated control).
With `COc1cc(Nc2ncc3c(n2)-c2ccc(Cl)cc2C(c2c(F)cccc2OC)=NC3)ccc1C(=O)O` the remaining activity was 111% (PLK3; kinase activity; 1 µM).
For `COc1cc(-c2cncc3c2CN(C)Cc2cc(N4CCNCC4)ccc2-3)cc(OC)c1OC`, the remaining activity was 109% (Eukaryotic translation initiation factor 2-alpha kinase 3 (EIF2AK3, Homo sapiens, UniProt Q9NZJ5); kinase activity; 1 µM, human enzyme, together with: ATP 10 µM; baseline: DMSO control).
`COc1cc(F)ccc1-c1ncnc(Nc2cccc(C[S@](C)(=N)=O)c2)n1` has a remaining activity of 73% (Serine/threonine-protein kinase Nek11 (NEK11, Homo sapiens, UniProt Q8NG66); kinase activity; 10 µM, together with: 10 µM ATP).
With `CC[C@@H]1[C@H](F)C(=O)N[C@@H]1COc1nccc2cc(C(N)=O)c(OC)cc12` the inhibition was -10% (Cyclin-G-associated kinase (GAK, Homo sapiens, UniProt O14976); ATP-site probe binding, ActivX profiling; THP-1 cell lysate; 0.2 mM, Lys2 site).
`Cc1ccc(NC(=O)c2ccc(C)c(C(F)(F)F)c2)cc1C#Cc1nn(C2CCC(O)CC2)c2ncnc(N)c12` (stereo not shown) gave a remaining activity of 87% (Phosphatidylinositol 4,5-bisphosphate 3-kinase catalytic subunit alpha isoform, with p85 alpha (Pik3ca, Mus musculus, UniProt P42337, E545K); enzyme activity, inhibitor; 10 µM, p110a(E545K)/p85a)(m mouse, together with: ATP 10 µM).
The remaining activity of `C=CC(=O)N1CCC[C@@H](n2nc(-c3ccc(Oc4ccccc4)cc3)c3c(N)ncnc32)C1` is reported as 95.7 ± 1.3% (STK24; kinase activity, inhibitor, HotSpot radiometric; 100 nM, together with: ATP 10 µM).
The Kd of `N#Cc1c2n(c3c(=O)n(CC(=O)O)cnc13)CCCC2` is reported as 552 µM (USP20 ZnF-UBD domain).
`COc1cc(N2CCN(C)CC2)ccc1Nc1nc(N)n(C(=S)NCc2c(Cl)cccc2Cl)n1` gave a remaining activity of 0.2% (Interleukin-1 receptor-associated kinase 1 (IRAK1, Homo sapiens, UniProt P51617); enzyme activity; 10 µM; baseline: control).
For `CNCC(=O)O`, the remaining activity was 103% (Sodium- and chloride-dependent glycine transporter 2 (Homo sapiens, UniProt Q9Y345); glycine uptake, inhibitor, [3H]glycine uptake; 2000 µM, log concentration 2, together with: [3H]glycine; baseline: no inhibitor).

Some of these lines once more:
`COc1cc(N2CCN(C)CC2)ccc1Nc1nc(N)n(C(=S)NCc2c(Cl)cccc2Cl)n1` gave a remaining activity of 0.2% (Interleukin-1 receptor-associated kinase 1 (IRAK1, Homo sapiens, UniProt P51617); enzyme activity; 10 µM; baseline: control).
With `C=CC(=O)N1CCC[C@@H](n2nc(-c3ccc(Oc4ccccc4)cc3)c3c(N)ncnc32)C1` the remaining activity was 90.5% (Tyrosine-protein kinase SYK (SYK, Homo sapiens, UniProt P43405); 0.1 µM).
For `C1=C/COCc2cc(ccc2OCCN2CCCC2)Nc2nccc(n2)-c2cccc(c2)COC/1`, the remaining activity was 71% (Epidermal growth factor receptor (EGFR, Homo sapiens, UniProt P00533, del746-750); concentration not given; baseline: untreated control).
